Published values of several laboratories.
Numbered parts are unrelated; each lists some results of a single study.

Block 1
Target: Sal-like protein 4, full length isoform A (SALL4, Homo sapiens, UniProt Q9UJQ4, residues 1-1053)
Sequence of UniProt Q9UJQ4 (whole entry, looked up): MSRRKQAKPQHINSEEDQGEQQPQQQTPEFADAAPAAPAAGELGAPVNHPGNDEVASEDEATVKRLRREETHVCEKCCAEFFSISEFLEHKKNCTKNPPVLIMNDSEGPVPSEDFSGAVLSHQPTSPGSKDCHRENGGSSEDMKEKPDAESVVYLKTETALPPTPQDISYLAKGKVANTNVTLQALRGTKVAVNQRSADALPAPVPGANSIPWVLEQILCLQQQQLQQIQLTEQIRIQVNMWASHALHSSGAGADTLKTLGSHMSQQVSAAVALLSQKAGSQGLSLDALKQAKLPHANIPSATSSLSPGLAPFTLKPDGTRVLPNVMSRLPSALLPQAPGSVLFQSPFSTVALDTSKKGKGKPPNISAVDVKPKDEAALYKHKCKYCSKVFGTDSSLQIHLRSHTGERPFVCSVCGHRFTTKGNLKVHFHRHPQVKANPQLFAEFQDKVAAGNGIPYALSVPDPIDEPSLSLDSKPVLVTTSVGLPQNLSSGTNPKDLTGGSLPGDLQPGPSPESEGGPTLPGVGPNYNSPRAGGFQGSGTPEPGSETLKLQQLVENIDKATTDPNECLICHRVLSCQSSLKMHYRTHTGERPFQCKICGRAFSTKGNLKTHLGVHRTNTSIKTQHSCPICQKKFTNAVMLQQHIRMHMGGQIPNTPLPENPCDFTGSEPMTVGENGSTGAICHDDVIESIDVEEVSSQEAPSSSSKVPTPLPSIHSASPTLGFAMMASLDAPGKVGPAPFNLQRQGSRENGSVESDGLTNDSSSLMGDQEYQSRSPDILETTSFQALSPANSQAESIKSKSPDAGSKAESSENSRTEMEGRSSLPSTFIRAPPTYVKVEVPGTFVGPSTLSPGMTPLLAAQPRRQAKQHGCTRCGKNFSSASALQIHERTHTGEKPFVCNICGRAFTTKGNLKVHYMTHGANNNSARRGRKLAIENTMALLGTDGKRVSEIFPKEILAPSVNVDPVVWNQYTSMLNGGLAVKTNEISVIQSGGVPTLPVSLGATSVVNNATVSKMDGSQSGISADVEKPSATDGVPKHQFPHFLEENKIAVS
Method: universal PBM
Form: double-stranded DNA, one strand shown
Sample: in vitro
Concentration: 600 nM
Notes: 8-mer, flanks averaged, mean of replicates
Direction: higher = stronger binding
| Strand | E-score |
| --- | --- |
| ACCGGGAG | -0.22 |
| CCATGGAC | -0.305 |
| ACCCTACC | -0.146 |
| ATACCATA | 0.327 |
| CACTAGGC | -0.172 |
| ACTGCGGC | -0.319 |
| CAACAGGC | -0.0471 |
| CGTAGCAC | -0.0306 |
| GAGTAAAC | 0.0215 |
| CAGCTACC | -0.268 |
| ATTAGTAG | 0.304 |
| ACCTTTCC | 0.0619 |
| AAGATAAG | 0.153 |
| AGAGTGCC | -0.197 |
| ACTGATAC | -0.0549 |
| CATTATGA | 0.317 |
| GAAGGTCC | -0.299 |
| AGGGTACT | -0.21 |
| GATAGTAA | 0.178 |
| AGATGCAG | -0.0602 |
| ACGAGTGC | -0.0953 |
| ATACTTTC | 0.232 |
| CAAACCAA | 0.202 |

Block 2
Target: Phosphate system positive regulatory protein PHO4, full length, GST-tagged (PHO4, Saccharomyces cerevisiae, UniProt P07270, residues 1-312)
Method: competition protein-binding microarray
Form: double-stranded DNA, one strand shown
Sample: in vitro
Concentration: 2 µM
Notes: whole 60-bp probe, lowest competitor level
Together with: Cbf1 competitor, 0.05 µM
Direction: higher = stronger binding
Residues (chain): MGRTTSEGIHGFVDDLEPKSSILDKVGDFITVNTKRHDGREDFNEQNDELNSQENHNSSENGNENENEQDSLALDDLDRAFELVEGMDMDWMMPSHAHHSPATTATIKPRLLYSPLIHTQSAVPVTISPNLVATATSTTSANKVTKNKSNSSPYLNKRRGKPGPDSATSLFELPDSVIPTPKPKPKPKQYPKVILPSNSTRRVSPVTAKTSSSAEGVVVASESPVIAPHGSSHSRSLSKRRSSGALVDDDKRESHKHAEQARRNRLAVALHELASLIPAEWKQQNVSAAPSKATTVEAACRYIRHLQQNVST
| Strand | fluorescence intensity [a.u.] |
| --- | --- |
| AAAGCGGTAATTTGCGGCGTGGGTGCAGATATCTATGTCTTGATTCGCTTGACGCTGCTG | 7880 |
| AAGACGAAAGGAGTGCAGGTGATGACAACCTCAGTGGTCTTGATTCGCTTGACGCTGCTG | 5780 |
| GCACCCGGCCTGCGCTGCGTGCAATGACTGCGGGCGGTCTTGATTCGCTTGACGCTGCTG | 6790 |
| CGTAAATATCAACTTGTCGTGCTAATAAGCACTAACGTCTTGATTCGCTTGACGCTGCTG | 6560 |
| GACCACAAAAGGATGCACGATCAGAAGCACTGTACCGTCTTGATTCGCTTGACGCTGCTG | 7440 |
| CTTTCCCGATCTTGTGATGTGGGTGTAGCACATTTGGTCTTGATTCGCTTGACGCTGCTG | 5560 |
| GCAAACTTGTTATTGCACGTTAAGTTTTGGGCTCAAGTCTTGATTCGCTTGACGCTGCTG | 6110 |
| CACAGATGAGTCAGCTTCGTGATGGCCTGTTTCGGTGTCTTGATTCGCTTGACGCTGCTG | 4170 |
| CTATTCTTGCTAATTGACGTGCGATGGTACCAGGAGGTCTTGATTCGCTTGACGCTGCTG | 6360 |
| CTTTCCCGATCTTGCTATGTGGGTGTAGCACATTTGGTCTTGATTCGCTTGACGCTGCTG | 5250 |
| CTTACCGTCAACTTTGACGTGACGGAGCATCAAGATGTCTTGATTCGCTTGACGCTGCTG | 3670 |
| ACCTATGCTAAAATTCACGTGTAGGCATTTCAAAATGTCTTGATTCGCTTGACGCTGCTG | 14600 |
| GTTTGGTGCAGTGGCCACGAGGTGACTGCGACAGTCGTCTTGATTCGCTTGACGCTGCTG | 10800 |
| TAAACTTTCTACGGCCACGTGTAACCTCTTTCAGAAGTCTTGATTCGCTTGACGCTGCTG | 16400 |

Block 3
Target: RNA binding protein fox-1 homolog 2, RRM domain, GST-SBP tag (RBFOX2, Homo sapiens, UniProt O43251-10, residues 100-194)
Method: RNA Bind-n-Seq
Form: RNA
Sample: in vitro
Concentration: 365 nM
Notes: natural RNA segment, single round, ends assumed
Reference: no-protein control
Direction: higher = stronger binding
Target sequence (chain): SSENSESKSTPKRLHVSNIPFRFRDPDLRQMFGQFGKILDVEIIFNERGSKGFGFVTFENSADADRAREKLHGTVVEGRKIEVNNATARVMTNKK
| Strand | RBNS enrichment (R) |
| --- | --- |
| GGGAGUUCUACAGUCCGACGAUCCCUCAUCCUCCUACCCUGUACUCCCACCAAACCAUGGUCCUUUAAGGCACGCUCCUGUCCUCCUCAUUGCCCAGCAGUAGGGAGGGGCAGGGGUAAGGGGACCUGAGGAUUGGAAUUCUCGGGUGCCAA | 0.198 |
| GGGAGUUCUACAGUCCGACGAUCUUGCUUUGGGGGGAGGAUGUUAAAAUCCAGAACUUAGCUAGUUAGUACCUGCAAGGCAGGUGAGGGCUCUAGCAAGCCCAUGAAGUUCUCAGUGAGCCUCAUUCCCUAGAUGGAAUUCUCGGGUGCCAA | 0.268 |
| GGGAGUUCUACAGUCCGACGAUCUUAUGUGUGAGCUAGAAUCUAGGGUAGCUGUCCACUUCUUUUUCUGUUGUCCUGACAGUAAAGCAAAUAGUAAGCCAUGUCUUGAAAGUGAUUUGCUUGUUUCAUACUGAUGGAAUUCUCGGGUGCCAA | 1.64 |
| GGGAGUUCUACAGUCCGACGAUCCUAAUCUAAGUUAAUUAAUGUGGUAAUGAUGUUAUUAAGUGUGGAAGCAAAUGCAGUAUAUUAAAGGUGAACACCACACUGAAACUCCCAACUCCUGACAGAAUAACCAGUGGAAUUCUCGGGUGCCAA | 0.521 |
| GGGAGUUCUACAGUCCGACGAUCCAUAUUAUUUUUAGAUGAUGUAACAUAGCCAUCAAAAUUAAUAUUAUGUAAUGCCUAAUACUUAGUAUGUAAAUGUCACGAGAUCAUUUUUACAUUAAACGUGAAAAAAAUGGAAUUCUCGGGUGCCAA | 0.64 |
| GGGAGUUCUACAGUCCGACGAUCACCUGCCACCAGCAGCCCGCGAGGGAAUGCGAGGUGUGAUUGUCCCAGUGGCUCUCAACCCAUGCGCUACCAAAUACGCCUGGGCAGCCGGGACGGGCCGGCGGGCACCAUGGAAUUCUCGGGUGCCAA | 0.184 |
| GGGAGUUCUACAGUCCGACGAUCCUGAAAGCUAAAGGCUCACCACUUGAUGGUGCCUAAAGUGGGUCGGUUACCCGAGUGAGCGGCUGCACAGUGCUCACUGAGUCCCCUCAUCUCCAGCAGUCUUGGUGCUGUGGAAUUCUCGGGUGCCAA | 0.272 |
| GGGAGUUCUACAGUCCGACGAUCCCUCCUAUUUCUGGCAUCAGAACUUUGCCAUUUGUCUACAGAAGACGAACCAGAGACAAAAUUACUAAGUAUAAAUUAGUCAAGUUUAUCAGUCUAAAAAACGAAGGGAUUGGAAUUCUCGGGUGCCAA | 0.406 |
| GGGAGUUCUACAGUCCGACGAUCAAUCAAAACCCUCAGAGGGUCCUGAUGAGCAGAGAGUCUUUCCCUGGCCUUUCGAGCUUCAGAGAUGGGAGUCUGAUGGCAGUGUCCUGCUUGGAGAAGGCCCAGGGGUGUGGAAUUCUCGGGUGCCAA | 0.325 |
| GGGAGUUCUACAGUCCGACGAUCACUUCGGGGAGAUUGAUUGGAUCAGAGCCAUUGGCUGGCUCUGGCUCUGCUUUUCUGCCUUCAGUUAUCUACAGAACAGCAGGUUUGCCUGAAGUGCAGCCUUCACCAGGUGGAAUUCUCGGGUGCCAA | 0.264 |
| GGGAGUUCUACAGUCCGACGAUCAGUGCUGAGGACAGUGUUGACAACUAACUCGUUUUCCUAGAUGGAAACGGAGACAUUGACCCCUCCCUCCAUGUGGUAAACCACUCCAGAAUGGCCACCAGGCUUCCCAGUGGAAUUCUCGGGUGCCAA | 0.19 |
| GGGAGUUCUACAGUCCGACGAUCUACCAGUCACCAAAGUUUCCUGUUAUAAUUUCUUUUAGCAGACAAGUUAUAAGUCAGAUUUAAUUAGCAUCAGAGUUGAUUUUAUAUUAGUCAGAUUUUGGAUCAUCACAUGGAAUUCUCGGGUGCCAA | 0.491 |

Block 4
Target: Histone acetyltransferase KAT6A, winged helix 1, GST fusion (KAT6A, Homo sapiens, UniProt Q92794, residues 1-85)
Method: protein binding microarray
Form: double-stranded DNA, one strand shown
Sample: in vitro
Concentration: not given
Notes: 8-mer, flanks averaged, mean of 2 arrays, mostly near background
Reference: not given
Direction: higher = stronger binding
Construct (chain): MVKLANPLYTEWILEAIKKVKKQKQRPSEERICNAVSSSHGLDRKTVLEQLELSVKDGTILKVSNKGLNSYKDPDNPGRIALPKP
| Strand | E-score |
| --- | --- |
| AATTAACG | 0.0599 |
| AACAACTA | -0.036 |
| CAATGAGA | -0.279 |
| ACGCGACA | 0.246 |
| AGTGACCG | 0.0575 |
| ATGTAATG | -0.00251 |
| CGTAGTCC | 0.152 |
| AACCAAAA | -0.197 |
| TCGCGCAA | 0.308 |
| AGCCACCC | 0.0476 |
| CAGCACCG | 0.191 |
| AGGAGGCG | 0.187 |
| ATCCAAAT | -0.166 |
| ATATGGGC | -0.0481 |
| CAATATAA | 0.0329 |
| GACCTAGC | -0.0304 |
| GCAAATGA | -0.233 |
| ACAATACC | 0.025 |
| CTACGGCA | 0.381 |
| GACATTCC | -0.0412 |
| ACAATCGA | -0.158 |
| GTTACCCA | -0.093 |
| CCCATGCA | -0.229 |
| ACCTGACA | -0.269 |
| TATACAGA | -0.0541 |
